# Measurements pooled from the literature.
# Every numbered part comes from another study and shows a few of its results, in no order.

# Sample 1
# Target: RING finger protein unkempt homolog, zinc fingers 1-6, GST-SBP tag (UNK, Homo sapiens, UniProt Q9C0B0, residues 30-357)
# Method: RNA Bind-n-Seq
# Form: RNA
# Medium: in vitro
# Tested at: not given
# Setting: RNA with constant flanks, ends assumed
# Relative to: input RNA pool
# Reading: higher = stronger binding
# Shared flanks, not repeated: GGGAGUUCUACAGUCCGACGAUC … CAACAGAGGAUUGAGCAUCA
# Target sequence (chain): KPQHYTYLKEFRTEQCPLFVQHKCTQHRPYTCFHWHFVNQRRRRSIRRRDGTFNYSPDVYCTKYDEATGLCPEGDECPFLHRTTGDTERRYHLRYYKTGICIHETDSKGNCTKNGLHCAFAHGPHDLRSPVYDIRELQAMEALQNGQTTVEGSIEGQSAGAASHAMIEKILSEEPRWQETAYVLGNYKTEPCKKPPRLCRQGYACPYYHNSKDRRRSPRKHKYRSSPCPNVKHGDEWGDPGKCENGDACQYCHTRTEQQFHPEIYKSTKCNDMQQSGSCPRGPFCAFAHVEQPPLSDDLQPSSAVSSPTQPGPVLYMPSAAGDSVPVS
Oligonucleotide,bound/input enrichment [ratio]
GAUAUUGUGCUUGCCAUCCUCGAAUUACUUAAGUAUCAUCAGAGAGUCUUAUAUAUUGACACCGACAUCCACCAUGGUGAUGGUGUUGAGGAAGCUUUUUAUACAACAGAUCGCGUGAUG,0.298
CAGUUGAAGUAUCAGAGAAUCUUGGAACGAUUAGAAAAGGAGAACAAAGAAUUGAGAAAAUCCGUAUUGCAGAAAGAUGACAAAGGCAUUCAUCAUAGAAAGCUUAAGAAAUCUUUGAUU,0.252
CGGGGAGCUUUCUGUGAAGUGAGACCAGAUGAUAAAAGAAUUCUGGAAUUUUACAGCAAGUCCGGAUGUUUUGAAAUUGCAAAAAUGGAAGGAUUUCCAAAGGAUGUGGUUAUACUUGGU,0.163
GCUAAUCAAGAGCCAGGUAUUUUACAACAAAAAAAUGCAGUUCAGAUUAUUAGUUCUGCUUCCGAUACUGAUAAUGAAUCUACAAAAGAUACAGAAAAUACUUUUGUCCUAGGAGAUGUU,3.09
CCCCACCCCUUUGCCUCUUUCCACCCGGGCCUCAACCCUUUGGAGCGGGAGAGACUGGCACCCGCAGGUCCUCAGCUGCGGCCUGAGAUGAGUUACCCAGACAGACUGGCAGCCGAGCGC,0.343
AGGAAAUGUUGUAAUCAUCCAUAUCUUAUAAAAGGUGCUGAGGAGAAAAUACUUGGAGAAUUCCGAGAUACUUACAAUCCAGCUGCUUCUGAUUUUCAUCUUCAAGCAAUGAUCCAGUCU,0.156
UAUAAUAAUCAUGAAAUUCGUUCUGGAAAACAUAUUGGUGUCUGCAUCUCAGUUGCCAACAACCGGCUUUUUGUGGGCUCUAUUCCUAAGAGUAAAACCAAGGAACAGAUUCUUGAAGAA,0.17
AUAGAAGCAGCGCCUGAGUCCCAGAUGAUGCCCGCCAGCGUCCUAACGGGCAAUGUCAUCACCGAGACAAAGUUCUUUGACGAUGAUCUUCUUGUCAGCACAUCCAAAGUGAGGCUUUUC,0.0724
CACUGCGAAAAUUCAUUCCGCUGUAAUGUUUUCACAAUAUUUAAAGCAGAAGCACGUCAGUCCGGAUUUCCUUCUGCAUAAGGUUUUUUUGUAGUGUAAUGUCUUAAUCAUAGUCUACCA,0.31
UACUGCUGGUCCUGUACCAGAAACAUUUUCUUUUAUUGUUACUUGCUUUUUAAACUUUGUUCCGCCACUUAAAAUCUGCUUAUGGCACAAUUUGCCUCAAAAUCCAUUCCAAGUUGUAUA,1.32
CAGAACCUAAACUUAUAGCAAAAGAGCCAAGCAGUAGCAGUUUUUGUAAAUGUAAAAAUAAUCCGAUCCAGACUUUGUUUCCUUCAAUUUUAAAAAUAAAAAAUACCUCAGUGCUAUGUU,2.63

# Sample 2
# Target: Histone acetyltransferase KAT6A, winged helix 2, GST fusion (KAT6A, Homo sapiens, UniProt Q92794, residues 85-181)
# Method: protein binding microarray
# Form: double-stranded DNA, one strand shown
# Medium: in vitro
# Tested at: not given
# Setting: 8-mer, flanks averaged, mean of 2 arrays, mostly near background
# Relative to: not given
# Reading: higher = stronger binding
# Construct (chain): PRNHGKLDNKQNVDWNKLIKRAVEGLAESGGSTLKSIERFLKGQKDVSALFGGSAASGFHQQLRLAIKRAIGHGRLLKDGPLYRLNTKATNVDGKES
Oligonucleotide,E-score
ACTTCGAA,-0.0539
CTTTTCCC,0.0849
CAACAGAG,0.0599
ACCGAAGA,0.0752
CGTACGTA,-0.298
AAATACAT,-0.0818
CCACTAGC,-0.118
CCGAAGCC,0.0819
TGCTAAAA,0.148
ATTGCTGC,-0.0423
CGCGCACA,0.134
CCAACAAA,0.127
AGACGGTA,-0.0315
CGCTAGTC,-0.101
TCAAATCA,-0.0601
GCCCGACC,0.114
ACCTTGGA,-0.177
AAAACTTA,0.0491
CCTGGCGA,0.134
ACCAATTA,0.0193
GAGAATGA,-0.106
ACGTTCCC,-0.175
GGGGATGA,-0.173

# Sample 3
# Target: RNA binding protein fox-1 homolog 2, RRM domain, GST-SBP tag (RBFOX2, Homo sapiens, UniProt O43251-10, residues 100-194)
# Method: RNA Bind-n-Seq
# Form: RNA
# Medium: in vitro
# Tested at: 365 nM
# Setting: natural RNA segment, single round, ends assumed
# Relative to: no-protein control
# Reading: higher = stronger binding
# Shared flanks, not repeated: GGGAGUUCUACAGUCCGACGAUC … UGGAAUUCUCGGGUGCCAA
# Residues (chain): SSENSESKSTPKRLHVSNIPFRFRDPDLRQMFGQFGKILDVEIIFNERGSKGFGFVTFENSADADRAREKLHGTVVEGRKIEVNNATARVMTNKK
Oligonucleotide,RBNS enrichment (R)
UCAAUGGCCAACGAAGGUGCUUGGAAACACCUAACCUUGCAAGUUUUACCGCCUUUUGAGGAACACAAAUCGGAGAACAAACCCAGGGUUCAGGCGUGUUUUCUGUGAAU,0.639
GUAUCAUGACUCAGUAUGGUUCAAUUUCCUAGUAAGAAGUGGGGAUUUGUGUUUUUGGAGUCCUCAGCUCACAUGUCUUGUUCCUCCUUCAGCACAAGCUAGGGGAGAUC,0.565
AAGAAAAGUAUAUAGAUCUGUAAUUGGACAGCUCUCUCGAAGAGAUCUUACAGACUGUAUCAGUCUAAUUUUUAAAUUUUAAGUUAUUUUGUACAGCUUUGUAAAUUCUU,0.45
UAUGCUCACUGGUCAUCACAUUCAGCUUAUUCUUACGUGCCAGUGAGGCCCUAAGGUCUCAGUGCAUAGCAUACCUGCCACUCUGGAUGUUUUCCUGGGCUUCAUAUCUG,0.384
UGUAUAUUUCUAGUGUUUACAGACAGUAAAUGUGUAUAUGUAGUAACUAUUUACAGAACAUGCAUCCUUAAACUGUGACUUCUCACCUAGUGCAGAACUUUUACCAGGCU,0.633
GUUGGGCAGUCUCAGUUGAGAAGCUUUAUCGCCUCAAGCCAAGUGGGAGCUCUCUCCCUCAUGCCUGUGGGUAUUUCUGAAAUGAAGCUGCGCCCUGUUCUGUCCUUUCC,0.371
UUACCGUGGUCCUCCGUUGUGAGUGUUGCAGGGCUAUAGGAAGACAAAGCCUGGGGUACCCGCAUCUGGUUUGGAACCCUGAGUUUUGUUGUUCAGUCAGCAGCCCUAGU,1.15
GAAAUAACUGCAACUAGAGAAAACUGUAUAAAAACAUUAAAUUGUCAGUAUUUUUGUAAGGUUCCAUUUUGUAAAGAGAAUAAUAUUCAAAGACUUUUGUAGCAUACAAA,1.12
CUCAGUGGUCACUUUCCCGCUCCCACUUGGGGCUGGGAGCCGUGCCACCAUCCCCUAGAAGUCCUGUCCUCUUCACCCUGCCCUACCUGAGCCGCUGACUCUUCUGGCAA,0.376
AUAAUGACCUAUUUCUAUAAAAAAAUAAAAUUGUACGGAUUAUGUGUAAAUUAUUUUGUAUCUGAGAUACCAGUUCCAUUCCCACAUAUGAAAGUAUAAAGGUUUCCUUG,0.463
AUUUUUUCCCCAUUUUUCAGAAGCGACAUUUCAUAUAUAGGUGCCAAAAGUGAAUCGGGGUGCGGAGAGUGGGAACCUUUUGAAUUUAUGAUUGUCACAGAGAUGGUAGA,1.08
CCUUGGCCAGGACUUCACAAGGCUCACACCUACAAUCCCAUGAAGGCCAGGGUGGUCUGCUUAGCCAGGAAAGGGCAAGUGCCUUCCCCUCGGCCACACUGCCCCUUGUG,0.225

# Sample 4
# Target: Fragile X messenger ribonucleoprotein 1, C-terminal low-complexity region (Fmr1, Mus musculus, UniProt P35922)
# Method: RNA Bind-n-Seq
# Form: RNA
# Medium: in vitro
# Tested at: 200 nM
# Setting: whole 134-nt RNA, ends assumed
# Added: 150 mM LiCl
# Relative to: input library
# Reading: higher = stronger binding
# All molecules: 7-deaza-guanosine replaces G
# Shared flanks, not repeated: GGGAGUUCUACAGUCCGACGAUC … UGGAAUUCUCGGGUGUCAAGG
Oligonucleotide,log2 enrichment
AGUCCUGUGCUACACAUCGUAUGUACCGAAUCGGGGUUUGGGGAAAGGGGAAAGGGGAAAGUAUUAUGUUACGCCGUUCGGAUCUGCACU,0.108
CAAGUCCUGUGCUACACAUCGUAUGUACCGAAUCAAAUUUAAACCCAAACCCAAAAAAGUAUUAUGUUACGCCGUUCGGAUCUGCACUUC,0.988
UGGAGAGGGAAGUCCCAAUGGUGCUAGAAUGGUGCUGCAGUGGCAGAAGACGGCUCACAAGUGAGGUCUGGAAGAACAACAGGGAAGACA,0.491
GCAGGAAAUAAAAACAAAUGGAAAUGCUUCGGAUAGUGGCAGGGGUGGGGGUUGCUAAGGAAAGGGUGGGAUGGGAGUGGGUAAAGAGUU,1.66
AAGUCCUGUGCUACACAUCGUAUGUACCGAAUCGGUUUUGGGUUUUGGGGUUUUGGAAAGUAUUAUGUUACGCCGUUCGGAUCUGCACUU,-1.51
UGGGUUCUUAUUUCUAACUUGCAUAUGUUUUGUUUUUCAGAAGGAGUUGAGCCUUCCAAGAAGAGGCAGCUUGUAAGUAGAUGAUUAUUA,-1.93
CUAGAGAGCUGUAGUACACAUGGAUGAACGACGAGAAGAACAAAUUGUACAGUUACUGAAUUCUGUUCAAGCGAAGAAUGAUAAAGAGUC,-1.01
CACAGACAACACGCACCCACACAGACACAGAGGGAAGGGGUUGGGAUGGGGACAGGCUGCACAGCAGGGCGGGGUAGGACCCCAGCCCCU,-0.423
AAGUCCUGUGCUACACAUCGUAUGUACCGAAUCGGGGCCCCGGCCCCGGGGCCCCGGAAAGUAUUAUGUUACGCCGUUCGGAUCUGCACU,-1.13
ACUAUGCAGGUGGGCAUCUUUGGGAAGUGGGGCAAGGGGGGGAUAGGGAGGGGGGUAACACUUUGGGAACAGGUGGUCCCAGGUCGUUUC,1.26
UCCUGUGCUACACAUCGUAUGUACCGAAUCGGGGAAAAAAAGGGGUUUGGGGUUUGGGGAAAGUAUUAUGUUACGCCGUUCGGAUCUGCA,-1.18

# For quick reference, copied from above (sample 3):
Oligonucleotide,RBNS enrichment (R)
GAAAUAACUGCAACUAGAGAAAACUGUAUAAAAACAUUAAAUUGUCAGUAUUUUUGUAAGGUUCCAUUUUGUAAAGAGAAUAAUAUUCAAAGACUUUUGUAGCAUACAAA,1.12
CUCAGUGGUCACUUUCCCGCUCCCACUUGGGGCUGGGAGCCGUGCCACCAUCCCCUAGAAGUCCUGUCCUCUUCACCCUGCCCUACCUGAGCCGCUGACUCUUCUGGCAA,0.376
AUAAUGACCUAUUUCUAUAAAAAAAUAAAAUUGUACGGAUUAUGUGUAAAUUAUUUUGUAUCUGAGAUACCAGUUCCAUUCCCACAUAUGAAAGUAUAAAGGUUUCCUUG,0.463
AUUUUUUCCCCAUUUUUCAGAAGCGACAUUUCAUAUAUAGGUGCCAAAAGUGAAUCGGGGUGCGGAGAGUGGGAACCUUUUGAAUUUAUGAUUGUCACAGAGAUGGUAGA,1.08
CCUUGGCCAGGACUUCACAAGGCUCACACCUACAAUCCCAUGAAGGCCAGGGUGGUCUGCUUAGCCAGGAAAGGGCAAGUGCCUUCCCCUCGGCCACACUGCCCCUUGUG,0.225
